Results gathered from unrelated publications.
Protocols differ between the studies behind these lines. ± gives the spread as reported.

Structure (SMILES) | assay | test system | conditions | tissue uptake
CC[C@H](C)[C@H](NC(=O)[C@H](CCCCN)NC(=O)CNC(=O)[C@H](CC(C)C)NC(=O)[C@H](Cc1ccccc1)NC(=O)[C@H](CCCCN)NC(=O)[C@H](CO)NC(=O)[C@H](Cc1ccccc1)NC(=O)[C@H](Cc1c[nH]c2ccccc12)NC(=O)[C@H](CCC(N)=O)NC(=O)[C@@H](NC(=O)[C@H](Cc1ccccc1)NC(=O)CCCCCNC(=O)CN1CCN(CC(=O)O)CCN(CC(=O)O)CCN(CC(=O)O)CC1)C(C)C)C(=O)N[C@@H](CCC(=O)O)C(=O)N1CCC[C@H]1C(=O)N[C@@H](CC(=O)O)C(=O)N[C@H](C(=O)N[C@@H](CO)C(=O)N[C@@H](CCC(N)=O)C(=O)N[C@H](C(=O)N[C@@H](CCC(N)=O)C(=O)N[C@@H](CC(=O)O)C(=O)N1CCC[C@H]1C(=O)N[C@@H](CC(N)=O)C(=O)N[C@@H](CC(=O)O)C(=O)N[C@@H](CCC(N)=O)C(=O)N[C@@H](Cc1ccc(O)cc1)C(=O)N[C@@H](CCC(=O)O)C(=O)N1CCC[C@H]1C(=O)N[C@@H](Cc1ccccc1)C(=O)O)C(C)C)C(C)C [copper-64 labelled] | – | C57BL/6 mice, male, tumour-free, brain | 24 h | 0.43 ± 0.02 %ID/g
CSCC[C@H](NC(=O)CNC(=O)[C@H](CCCCN)NC(=O)[C@H](CC(C)C)NC(=O)[C@@H]1CCCN1C(=O)[C@H](CO)NC(=O)[C@H](Cc1c[nH]cn1)NC(=O)[C@H](Cc1c[nH]c2ccccc12)NC(=O)[C@H](CCCNC(=N)N)NC(=O)[C@H](CC(C)C)NC(=O)[C@H](CCCNC(=N)N)NC(=O)[C@H](Cc1c[nH]c2ccccc12)NC(=O)[C@H](CS)NC(=O)CCCCCNC(=O)CN1CCN(CC(=O)O)CCN(CC(=O)O)CCN(CC(=O)O)CC1)C(=O)O [copper-64 labelled] | ex vivo biodistribution | male C57BL/6J mice, spleen | intravenous, 1.85 MBq, 30 h, B16-F10 tumour-bearing | 1.84 %ID/g
CC(C)C[C@@H](NC(=O)[C@@H](CCCNC(=N)N)NC(=O)[C@@H](Cc1c[nH]cn1)NC(=O)[C@@H](Cc1c[nH]c2ccccc12)NC(=O)[C@@H](Cc1c[nH]cn1)NC(=O)[C@@H](Cc1ccccc1)NC(=O)[C@H](NC(=O)[C@@H](Cc1ccc(O)cc1)NC(=O)CNC(=O)CNC(=O)CCOCCOCCOCCNC(=O)CN1CCN(CC(=O)O)CCN(CC(=O)O)CC1)[C@H](C)O)C(=O)N[C@H](CC(N)=O)C(=O)N1CCC[C@@H]1C(=O)O [gallium-68 labelled] | – | C57BL/6 mice, male, blood | intravenous, 1.85 MBq, 60 min, added: GP12 blocking | 1.25 ± 0.25 %ID/g
C[C@H](O)[C@@H](NC(=O)[C@H]1CCCN1C(=O)[C@@H](CCCCN)NC(=O)[C@@H](CO)NC(=O)[C@@H](Cc1ccc(O)cc1)NC(=O)[C@@H](CC(N)=O)NC(=O)CCOCCOCCOCCNC(=O)CN1CCN(CC(=O)O)CCN(CC(=O)O)CCN(CC(=O)O)CC1)C(=O)N[C@H](CC(=O)O)C(=O)N[C@H](CCCNC(=N)N)C(=O)N[C@H](CCC(N)=O)C(=O)N[C@H](Cc1ccc(O)cc1)C(=O)N[C@H](Cc1c[nH]cn1)C(=O)N[C@H](Cc1ccccc1)C(N)=O [gallium-68 labelled] | ex vivo gamma counting | BALB/c nude mouse, U-87 MG xenograft, blood | intravenous, 1.85 MBq, 120 min | 0.05 ± 0.01 %ID/g
CN(CCCO)Cc1ccc(-c2noc(-c3ccc(OCC[18F])c(C(F)(F)F)c3)n2)cc1F | – | Sprague-Dawley rats, male, kidney | 5 min post-injection | 3.57 ± 0.17 %ID/g
CC[C@H](C)[C@H](NC(=O)[C@@H](Cc1c[nH]c2ccccc12)NC(=O)[C@@H]1CCCN1C(=O)[C@H](CCCCN)NC(=O)[C@H](CCCCN)NC(=O)CCNC(=O)CCNC(=O)CN1CCN(CC(=O)O)CCN(CC(=O)O)CCN(CC(=O)O)CC1)C(=O)N[C@@H](C[Si](C)(C)C)C(=O)O [gallium-68 labelled] | – | nude mouse HT-29 xenograft, spleen | 90 min | 0.84 ± 0.5 %ID/g
CN1Cc2cc(Cl)ccc2-n2c(nnc2C2CCN(c3cccc([18F])n3)CC2)C1 | – | C57BL/6 mouse male, muscle | intravenous, 3.7 MBq, 15 min | 2.36 ± 0.38 %ID/g
CCCC[C@H]1C(=O)N(C)[C@@H](CCCC)C(=O)N[C@@H](CCCNC(=O)CN2CCN(CC(=O)O)CCN(CC(=O)O)CCN(CC(=O)O)CC2)C(=O)N[C@H](C(=O)NCC(N)=O)CSCC(=O)N[C@@H](Cc2ccc(O)cc2)C(=O)N(C)[C@@H](C)C(=O)N[C@@H](CC(N)=O)C(=O)N2CCC[C@H]2C(=O)N[C@@H](Cc2c[nH]cn2)C(=O)N[C@@H](CC(C)C)C(=O)N(C)CC(=O)N[C@@H](Cc2c[nH]c3ccccc23)C(=O)N[C@@H](CO)C(=O)N[C@@H](Cc2c[nH]c3ccccc23)C(=O)N1C [gallium-68 labelled] | – | NOD/SCID mice with CHO-hPD-L1 xenograft, brain | 120 min post injection | 0.37 ± 0.16 %ID/g

For quick reference, copied from above:
Structure (SMILES) | assay | test system | conditions | tissue uptake
CC[C@H](C)[C@H](NC(=O)[C@@H](Cc1c[nH]c2ccccc12)NC(=O)[C@@H]1CCCN1C(=O)[C@H](CCCCN)NC(=O)[C@H](CCCCN)NC(=O)CCNC(=O)CCNC(=O)CN1CCN(CC(=O)O)CCN(CC(=O)O)CCN(CC(=O)O)CC1)C(=O)N[C@@H](C[Si](C)(C)C)C(=O)O [gallium-68 labelled] | – | nude mouse HT-29 xenograft, spleen | 90 min | 0.84 ± 0.5 %ID/g
